Experimental data of several laboratories.
A part holds a random share of what one study measured. Several values in a cell are separate wells, animals, samples, runs or records.
Chain of UniProt Q15375 (whole entry, looked up): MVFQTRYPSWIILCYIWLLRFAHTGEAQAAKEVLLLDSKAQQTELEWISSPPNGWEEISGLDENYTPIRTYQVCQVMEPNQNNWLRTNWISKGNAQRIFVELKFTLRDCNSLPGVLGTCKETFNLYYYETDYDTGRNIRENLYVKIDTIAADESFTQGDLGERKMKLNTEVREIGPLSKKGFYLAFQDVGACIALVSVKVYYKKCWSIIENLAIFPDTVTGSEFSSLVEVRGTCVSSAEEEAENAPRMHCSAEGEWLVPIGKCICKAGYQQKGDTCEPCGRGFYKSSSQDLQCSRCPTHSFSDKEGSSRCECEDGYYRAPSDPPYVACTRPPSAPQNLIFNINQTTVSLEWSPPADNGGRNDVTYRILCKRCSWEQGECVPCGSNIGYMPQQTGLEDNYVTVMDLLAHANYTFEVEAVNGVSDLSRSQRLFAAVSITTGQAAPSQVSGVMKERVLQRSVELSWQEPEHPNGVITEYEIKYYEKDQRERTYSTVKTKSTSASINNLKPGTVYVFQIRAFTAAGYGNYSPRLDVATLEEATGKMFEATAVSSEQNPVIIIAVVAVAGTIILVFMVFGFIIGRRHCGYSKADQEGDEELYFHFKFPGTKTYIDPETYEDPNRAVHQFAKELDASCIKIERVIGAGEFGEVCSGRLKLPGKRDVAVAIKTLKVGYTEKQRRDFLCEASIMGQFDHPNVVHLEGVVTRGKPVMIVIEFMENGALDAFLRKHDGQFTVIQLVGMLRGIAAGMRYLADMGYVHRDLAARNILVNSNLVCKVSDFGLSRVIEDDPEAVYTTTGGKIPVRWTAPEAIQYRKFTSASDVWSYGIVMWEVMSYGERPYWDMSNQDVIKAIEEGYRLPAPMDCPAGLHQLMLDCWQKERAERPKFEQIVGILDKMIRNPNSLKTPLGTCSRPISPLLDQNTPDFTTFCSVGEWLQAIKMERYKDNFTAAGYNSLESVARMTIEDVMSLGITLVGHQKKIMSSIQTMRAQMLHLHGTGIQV
Chain of UniProt Q13976 (whole entry, looked up): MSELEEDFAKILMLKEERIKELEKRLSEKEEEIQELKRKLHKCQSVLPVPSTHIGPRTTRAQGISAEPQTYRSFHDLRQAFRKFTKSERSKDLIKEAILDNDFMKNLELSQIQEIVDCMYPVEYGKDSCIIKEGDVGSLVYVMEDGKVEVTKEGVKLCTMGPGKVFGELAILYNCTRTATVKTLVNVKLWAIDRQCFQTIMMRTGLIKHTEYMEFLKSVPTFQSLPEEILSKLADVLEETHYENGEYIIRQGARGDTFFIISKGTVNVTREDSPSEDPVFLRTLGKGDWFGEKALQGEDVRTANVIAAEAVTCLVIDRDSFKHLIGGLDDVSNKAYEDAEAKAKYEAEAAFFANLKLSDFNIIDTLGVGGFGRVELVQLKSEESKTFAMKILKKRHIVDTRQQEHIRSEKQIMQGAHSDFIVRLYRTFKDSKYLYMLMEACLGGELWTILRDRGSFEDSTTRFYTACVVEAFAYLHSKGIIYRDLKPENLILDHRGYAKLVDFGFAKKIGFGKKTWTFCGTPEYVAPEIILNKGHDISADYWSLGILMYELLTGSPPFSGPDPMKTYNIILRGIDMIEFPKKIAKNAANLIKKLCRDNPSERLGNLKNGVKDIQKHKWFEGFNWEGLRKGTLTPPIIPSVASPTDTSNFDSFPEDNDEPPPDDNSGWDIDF
Chain of UniProt Q02156 (whole entry, looked up): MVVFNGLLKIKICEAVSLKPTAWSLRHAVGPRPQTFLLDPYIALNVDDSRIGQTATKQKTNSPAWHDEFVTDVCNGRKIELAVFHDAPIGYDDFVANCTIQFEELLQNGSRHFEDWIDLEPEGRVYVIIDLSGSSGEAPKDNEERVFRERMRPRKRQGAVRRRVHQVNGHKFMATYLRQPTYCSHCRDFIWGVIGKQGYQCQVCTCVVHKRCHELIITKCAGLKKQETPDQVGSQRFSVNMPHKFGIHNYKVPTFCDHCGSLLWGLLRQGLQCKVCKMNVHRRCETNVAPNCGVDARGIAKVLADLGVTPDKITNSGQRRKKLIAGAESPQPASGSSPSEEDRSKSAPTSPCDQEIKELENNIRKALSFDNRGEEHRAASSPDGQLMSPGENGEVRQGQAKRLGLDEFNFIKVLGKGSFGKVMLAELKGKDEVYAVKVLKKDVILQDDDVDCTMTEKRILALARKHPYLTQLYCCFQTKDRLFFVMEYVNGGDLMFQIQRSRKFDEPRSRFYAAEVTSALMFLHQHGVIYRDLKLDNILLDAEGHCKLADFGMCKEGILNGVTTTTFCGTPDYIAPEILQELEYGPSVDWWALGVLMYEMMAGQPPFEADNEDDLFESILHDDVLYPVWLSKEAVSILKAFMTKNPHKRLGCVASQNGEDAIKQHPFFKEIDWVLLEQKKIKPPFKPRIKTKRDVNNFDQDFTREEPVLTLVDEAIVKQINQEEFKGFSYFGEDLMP

Set 1
SMILES: Nc1cccc(-c2cc3c(Oc4cccc(O)c4)ncnc3[nH]2)c1
Read-out: enzyme activity
Mode: inhibitor
Tested at: 0.5 µM
Reference: control
Measurement: remaining activity
FGFR4 (Homo sapiens, UniProt P22455): 45.1%
MYLK (Homo sapiens, UniProt Q15746): 81.7%
EPHA7 (Homo sapiens, UniProt Q15375): 77.2%
RPS6KB1 (Homo sapiens, UniProt P23443): 95.3%
PRKCE (Homo sapiens, UniProt Q02156): 97.4%
NUAK1 (Homo sapiens, UniProt O60285): 37%

Set 2
SMILES: O=C(N1CCS(=O)(=O)CC1)N1C[C@H](c2ccc(OC(F)(F)F)cc2)C[C@H](c2nc(C3CC3)no2)C1
Read-out: cell-free assay
Method: competition with immobilised ligand
Tested at: 1 µM
Measurement: remaining binding
Tyrosine-protein kinase ABL1, non-phosphorylated (ABL1, Homo sapiens, UniProt P00519, F317L): 89%
SRC (Homo sapiens, UniProt P12931): 97%
Tyrosine-protein kinase JAK2, JH1 (JAK2, Homo sapiens, UniProt O60674): 75%
EIF2AK1 (Homo sapiens, UniProt Q9BQI3): 90%
ROCK2 (Homo sapiens, UniProt O75116): 98%
PIK3CA (Homo sapiens, UniProt P42336, E545A): 100%
FLT3 (Homo sapiens, UniProt P36888, D835V): 100%
PIK3CG (Homo sapiens, UniProt P48736): 100%
MAP3K19 (Homo sapiens, UniProt Q56UN5): 58%
BRSK2 (Homo sapiens, UniProt Q8IWQ3): 100%
PDGFRB (Homo sapiens, UniProt P09619): 100%
DAPK2 (Homo sapiens, UniProt Q9UIK4): 100%
WNK4 (Homo sapiens, UniProt Q96J92): 100%
Ribosomal protein S6 kinase alpha-5, N-terminal kinase domain (RPS6KA5, Homo sapiens, UniProt O75582): 100%
STK24 (Homo sapiens, UniProt Q9Y6E0): 97%
MAP3K9 (Homo sapiens, UniProt P80192): 100%
Tyrosine-protein kinase JAK1, JH1 (JAK1, Homo sapiens, UniProt P23458): 88%
LTK (Homo sapiens, UniProt P29376): 100%
LRRK2 (Homo sapiens, UniProt Q5S007): 100%
EGFR (Homo sapiens, UniProt P00533, G719S): 99%
FLT3 (Homo sapiens, UniProt P36888, N841I): 100%
EPHA7 (Homo sapiens, UniProt Q15375): 96%
Macrophage colony-stimulating factor 1 receptor, autoinhibited (CSF1R, Homo sapiens, UniProt P07333): 100%
PRKG1 (Homo sapiens, UniProt Q13976): 100%

Set 3
Target: DNA polymerase theta, ATPase domain (POLQ, Homo sapiens, UniProt O75417)
Chain of UniProt O75417 (whole entry, unmodified, looked up): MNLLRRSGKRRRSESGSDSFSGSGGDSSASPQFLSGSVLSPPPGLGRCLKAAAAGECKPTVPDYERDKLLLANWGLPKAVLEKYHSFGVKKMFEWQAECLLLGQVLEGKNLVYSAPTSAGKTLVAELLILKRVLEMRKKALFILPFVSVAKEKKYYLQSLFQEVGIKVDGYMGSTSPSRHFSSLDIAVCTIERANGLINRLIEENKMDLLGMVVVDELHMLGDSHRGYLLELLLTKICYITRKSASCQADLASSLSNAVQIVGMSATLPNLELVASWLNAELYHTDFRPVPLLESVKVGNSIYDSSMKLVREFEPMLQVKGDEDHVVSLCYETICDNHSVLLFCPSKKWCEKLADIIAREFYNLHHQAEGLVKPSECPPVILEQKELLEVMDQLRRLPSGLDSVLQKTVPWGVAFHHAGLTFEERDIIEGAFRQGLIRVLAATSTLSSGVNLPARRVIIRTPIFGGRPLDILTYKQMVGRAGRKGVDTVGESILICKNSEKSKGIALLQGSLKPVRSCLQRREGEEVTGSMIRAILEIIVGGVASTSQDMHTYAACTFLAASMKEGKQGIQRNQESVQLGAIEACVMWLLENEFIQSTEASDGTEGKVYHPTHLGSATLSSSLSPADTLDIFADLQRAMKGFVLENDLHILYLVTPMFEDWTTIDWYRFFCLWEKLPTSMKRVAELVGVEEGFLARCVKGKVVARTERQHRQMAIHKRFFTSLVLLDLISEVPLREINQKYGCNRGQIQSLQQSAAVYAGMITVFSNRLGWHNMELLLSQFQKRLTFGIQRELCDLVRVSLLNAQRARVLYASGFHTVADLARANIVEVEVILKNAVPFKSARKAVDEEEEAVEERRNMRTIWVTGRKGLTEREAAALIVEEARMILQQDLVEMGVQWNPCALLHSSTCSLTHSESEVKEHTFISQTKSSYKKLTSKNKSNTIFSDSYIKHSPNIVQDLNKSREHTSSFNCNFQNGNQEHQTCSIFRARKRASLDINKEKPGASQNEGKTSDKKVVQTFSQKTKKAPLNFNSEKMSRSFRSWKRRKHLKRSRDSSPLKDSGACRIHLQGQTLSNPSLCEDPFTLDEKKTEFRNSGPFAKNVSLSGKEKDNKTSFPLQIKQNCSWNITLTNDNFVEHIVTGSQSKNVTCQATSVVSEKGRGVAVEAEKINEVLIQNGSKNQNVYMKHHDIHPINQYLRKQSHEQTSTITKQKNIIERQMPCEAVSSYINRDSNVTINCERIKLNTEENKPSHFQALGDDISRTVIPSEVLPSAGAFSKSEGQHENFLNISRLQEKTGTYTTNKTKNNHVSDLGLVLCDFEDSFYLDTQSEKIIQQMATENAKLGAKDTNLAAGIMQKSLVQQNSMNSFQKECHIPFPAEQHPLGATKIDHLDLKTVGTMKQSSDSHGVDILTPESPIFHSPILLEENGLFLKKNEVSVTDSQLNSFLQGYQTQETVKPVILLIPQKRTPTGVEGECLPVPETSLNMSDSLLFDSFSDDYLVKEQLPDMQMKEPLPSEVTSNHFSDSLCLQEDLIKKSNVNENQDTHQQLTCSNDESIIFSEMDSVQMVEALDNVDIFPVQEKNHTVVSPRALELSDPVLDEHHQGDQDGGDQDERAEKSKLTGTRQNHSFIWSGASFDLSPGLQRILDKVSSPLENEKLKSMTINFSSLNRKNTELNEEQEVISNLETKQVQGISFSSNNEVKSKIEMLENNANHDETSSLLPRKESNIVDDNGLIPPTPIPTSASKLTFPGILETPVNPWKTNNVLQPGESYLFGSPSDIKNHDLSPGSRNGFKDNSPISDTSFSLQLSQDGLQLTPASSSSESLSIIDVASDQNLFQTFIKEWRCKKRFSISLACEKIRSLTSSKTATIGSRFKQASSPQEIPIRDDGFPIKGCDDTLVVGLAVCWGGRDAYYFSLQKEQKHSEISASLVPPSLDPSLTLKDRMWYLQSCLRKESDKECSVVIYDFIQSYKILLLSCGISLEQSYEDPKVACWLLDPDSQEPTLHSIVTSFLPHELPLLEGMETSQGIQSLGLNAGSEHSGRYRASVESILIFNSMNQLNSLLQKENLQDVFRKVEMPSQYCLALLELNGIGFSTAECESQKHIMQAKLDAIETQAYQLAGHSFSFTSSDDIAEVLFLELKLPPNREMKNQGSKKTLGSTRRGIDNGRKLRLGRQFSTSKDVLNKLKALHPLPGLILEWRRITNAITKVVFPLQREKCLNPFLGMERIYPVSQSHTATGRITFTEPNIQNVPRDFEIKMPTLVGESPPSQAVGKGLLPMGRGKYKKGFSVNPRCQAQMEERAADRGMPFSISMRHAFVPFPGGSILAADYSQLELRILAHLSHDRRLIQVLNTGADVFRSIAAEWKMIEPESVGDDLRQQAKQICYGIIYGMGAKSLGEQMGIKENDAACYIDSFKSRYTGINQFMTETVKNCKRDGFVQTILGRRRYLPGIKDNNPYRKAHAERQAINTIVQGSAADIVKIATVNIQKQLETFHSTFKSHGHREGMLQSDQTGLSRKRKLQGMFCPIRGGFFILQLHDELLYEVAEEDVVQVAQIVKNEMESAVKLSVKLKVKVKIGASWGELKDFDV
Read-out: enzyme activity
Mode: inhibitor
Tested at: 77 µM
Reference: untreated
Measurement: remaining activity
COc1ccc(O)cc1: 91.1%
O=S(=O)(O)CCSSCCS(=O)(=O)O: 95.5%
Cc1cc(-n2c(=O)[nH]c(=O)n(C)c2=O)ccc1Oc1ccc(SC(F)(F)F)cc1: 69.7%
Cn1c(-c2ccc3c(c2)OCO3)cc(=O)c2ccccc21: 108%
COC1=CC(=O)C[C@@H](C)[C@]12Oc1c(Cl)c(OC)cc(OC)c1C2=O: 101% and 103%
Cc1ccc2c(c1)C(=O)[C@]1(O)CCN(c3ccccc3)C1=N2: 78.2%
CCOC(=O)c1ccc(C#Cc2ccc3c(c2)C(C)(C)CCS3)nc1: 99.1%
CC(C)(C)c1ccc(S(=O)(=O)/C=C/C#N)cc1: 98.5%
CCOC(=O)[N-]c1c[n+](N2CCOCC2)no1: 97.1% and 100%
CCN1CCC[C@H]1CNC(=O)c1c(O)c(Cl)cc(Cl)c1OC: 99.7%
Cn1nc(C(C)(C)C)cc1C(=O)N[C@@H](Cc1cccc(Cl)c1)C(=O)NCC#N: 101%
Cc1cnc(C(=O)O)c[n+]1[O-]: 81.6%

Set 4
Cell line: mouse MPNST tumor cells
Method: high-content immunofluorescence imaging
Measured: nuclear SOX9
Tested at: 10 µM
Time: 12 h
Notes: mean of 2 replicates
Reference: DMSO control
Direction: higher = more nuclear SOX9
Measurement: nuclear SOX9 intensity
Oc1ccc(-c2nc3cc(O)cc(Br)c3o2)cc1: 124 % of DMSO
CCN(CC)CCOC(=O)C(Cc1cccc2ccccc12)CC1CCCO1 (centres unmarked): 113 % of DMSO
Cc1ccc(S(=O)(=O)n2c(N)nc3ccccc32)cc1: 102 % of DMSO
O=C(CCCN1CCN(c2ccccn2)CC1)c1ccc(F)cc1: 88.4 % of DMSO
C[C@@H]1CN(CC(=O)Nc2ccc3c(c2)Cc2cccc(-c4cc(=O)cc(N5CCOCC5)o4)c2S3)C[C@H](C)O1: 110 % of DMSO
CCc1cc(C(N)=S)ccn1: 106 % of DMSO
CN(C)CCN(Cc1ccccc1)c1ccccn1: 105 % of DMSO
COc1ccc(Oc2c(Cl)cnn(C3c4ccccc4-c4ccccc43)c2=O)cc1: 107 % of DMSO

Set 5
Species: human
Medium: microsomes or S9
Tested at: 2 µM
Time: 0.5 h
Measurement: remaining compound
CCn1cc(C(=O)NCc2ccc3c(c2)OCO3)c(=O)c2cc(F)c(N3CCN(C)CC3)cc21: 44.6%
CCNC(=O)N1CCC(CCOC)(NC(=O)NCC2CCCO2)CC1 (centres unmarked): > 100%
OC(Cc1c[nH]c2ccccc12)(c1ccccc1)c1ccccc1: 95.9%
CC(CNc1nc(-c2ccccc2)nc2nc(-c3ccccc3)oc12)N1CCN(C)CC1 (centres unmarked): 77.2%
CCCOc1ccc2c(c1)C(O)CC1(CCNCC1)O2 (centres unmarked): 72.5%
O=C(c1ccc(F)cc1)c1c2nc[nH]c(=O)c2c2ccccn12: 43.2%
CC(C)C(=O)Nc1ccc(N2CCCCC2C)cc1 (centres unmarked): 48%
CC1CCCC(=O)CCC/C=C/c2cc3c(c(O)c2C(=O)O1)C(c1ccc(OCC(N)=O)cc1)CC(=O)O3 (centres unmarked): 6.05%
O=C(Cn1cnc2ccccc2c1=O)NCCn1ccc2cc(Br)ccc21: 1.67%

For quick reference, copied from above (set 2):
PIK3CA (Homo sapiens, UniProt P42336, E545A): 100%
FLT3 (Homo sapiens, UniProt P36888, D835V): 100%
PIK3CG (Homo sapiens, UniProt P48736): 100%
MAP3K19 (Homo sapiens, UniProt Q56UN5): 58%
BRSK2 (Homo sapiens, UniProt Q8IWQ3): 100%
PDGFRB (Homo sapiens, UniProt P09619): 100%
